Measurements pooled from the literature.
± marks the error that the study gave.

For `CN[C@@](C)(C[18F])C(=O)O`, the tracer uptake was 2.2 %ID/g (MDA-MB-468 tumour model; host not given, bone; 15 min, tumour-bearing).
For `CC(C)C[C@H](NC(=O)[C@H](CC(C)C)NC(=O)[C@H](CCCCN)NC(=O)[C@H](CCCCN)NC(=O)[C@H](C)NC(=O)[C@H](CC(C)C)NC(=O)[C@H](C)NC(=O)[C@H](C)NC(=O)[C@H](CC(C)C)NC(=O)[C@H](C)NC(=O)[C@H](CCCCN)NC(=O)[C@H](CC(C)C)NC(=O)[C@H](C)NC(=O)[C@H](CC(C)C)NC(=O)[C@H](CCCCN)NC(=O)CNC(=O)[C@H](CC(C)C)NC(=O)[C@H](CC(C)C)NC(=O)[C@H](Cc1c[nH]c2ccccc12)NC(=O)CNC(=O)[C@H](C)N)C(N)=O`, the EC50 was 5.3 ± 0.8 µM (sheep erythrocytes; turbidity; pH 7.5).
`CSCC[C@H](NC(=O)[C@H](CCCCN)NC(=O)[C@H](CCCCN)NC(=O)[C@@H](NC(=O)[C@H](CCCCN)NC(=O)[C@H](CC(=O)O)NC(=O)[C@H](Cc1c[nH]c2ccccc12)NC(=O)[C@H](CC(C)C)NC(=O)[C@H](CCC(=O)O)NC(=O)[C@H](CCCCN)NC(=O)[C@@H](NC(=O)[C@@H](N)Cc1ccccc1)C(C)C)C(C)C)C(=O)NCC(=O)N[C@@H](CO)C(=O)N[C@@H](C)C(=O)N[C@@H](C)C(=O)N[C@@H](Cc1c[nH]c2ccccc12)C(=O)N[C@@H](CO)C(=O)N[C@@H](C)C(=O)N[C@@H](C)C(=O)N[C@@H](CCCCN)C(=O)NCC(=O)N[C@@H](C)C(=O)N[C@@H](Cc1ccccc1)C(=O)N[C@@H](C)C(=O)O` has an EC50 of 86.9 ± 12.1 µM (HEK293 cells; intracellular calcium, FLIPR; 0.1% BSA).
`N.N.[Cl][Pt][Cl]` has an EC50 of 0.1 µM (HAP1 POLH-deficient; cell viability; added: 0.1 µM).
With `N=C(N)c1ccc(-c2ccc(-c3cccs3)o2)c(F)c1` the inhibition was 96% (Salmonella enterica; sodium azide mutagenicity; TA1535; 20 µM, 48 h, added: sodium azide 2 µg/plate after pre-exposure).
`Cc1ncsc1-c1ccc([C@H](C)NC(=O)[C@@H]2C[C@@H](O)CN2C(=O)[C@@H](NC(=O)CNC(=O)c2ccc(F)c(-c3ccc(N4C[C@@H](C)N(C)[C@@H](C)C4)c(NC(=O)c4c[nH]c(=O)cc4C(F)(F)F)c3)c2)C(C)(C)C)cc1` has an EC50 of 0.0089 µM (MV4-11; cell growth or viability, ATP luminescence).
With `CC[C@H](C)[C@H](NC(=O)CN)C(=O)N[C@H](C(=O)N[C@@H](CC(N)=O)C(=O)N[C@H](C(=O)N[C@@H](CC(C)C)C(=O)N[C@@H](CCC(N)=O)C(=O)N[C@@H](CCCCN)C(=O)N[C@@H](Cc1ccc(O)cc1)C(=O)N[C@@H](Cc1ccc(O)cc1)C(=O)N[C@H]1CSSC[C@@H]2NC(=O)[C@H](CCCCN)NC(=O)[C@H](CCCNC(=N)N)NC(=O)CNC(=O)[C@H](CCCNC(=N)N)NC(=O)[C@H]([C@@H](C)O)NC(=O)[C@H](CO)NC(=O)[C@@H]3CSSC[C@H](NC(=O)[C@H](CCCNC(=N)N)NC(=O)CNC(=O)CNC(=O)[C@H](CCCNC(=N)N)NC(=O)[C@H](C(C)C)NC(=O)[C@H](CCCNC(=N)N)NC1=O)C(=O)N[C@@H](C)C(=O)N[C@@H](C(C)C)C(=O)N[C@@H](CC(C)C)C(=O)N[C@@H](CO)C(=O)N[C@@H](CSSC[C@@H](C(=O)N[C@@H](CCCNC(=N)N)C(=O)N[C@@H](CCCNC(=N)N)C(=O)N[C@@H](CCCCN)C(=O)N[C@@H](CCCCN)C(=O)O)NC2=O)C(=O)N[C@@H](CC(C)C)C(=O)N1CCC[C@H]1C(=O)N[C@@H](CCCCN)C(=O)N[C@@H](CCC(=O)O)C(=O)N[C@@H](CCC(=O)O)C(=O)N[C@@H](CCC(N)=O)C(=O)N[C@@H]([C@@H](C)CC)C(=O)NCC(=O)N[C@@H](CCCCN)C(=O)N3)[C@@H](C)O)[C@@H](C)CC` the EC50 was 0.74 ± 0.23 µM (LAD2; calcium influx).
`N#Cc1ccc(-c2ccc(-c3cccs3)s2)cc1F` has an inhibition of 93% (Salmonella enterica; sodium azide mutagenicity; TA1535; 10 µM, 48 h, added: sodium azide 2 µg/plate co-exposure).
For `C[C@]12CC[C@@H]3c4ccc(O)cc4CC[C@H]3[C@@H]1CC[C@@H]2O`, the EC50 was ~8e-05 µM (MCF7 stably expressing ERE-GFP; reporter gene, agonist, flow cytometry, item: ERα-driven GFP; 24 h).
For `COP(=S)(OC)Oc1ccc([N+](=O)[O-])c(C)c1`, the EC50 was 21.3 ± 0.5 µM (Caco-2; viability, MTT; 240 h).
For `CC(C)C[C@H](NC(=O)CN)C(=O)NCC(=O)N[C@@H](CCCCN)C(=O)N[C@@H](CC(C)C)C(=O)N[C@@H](CC(C)C)C(=O)N[C@@H](Cc1c[nH]cn1)C(=O)N[C@@H](C)C(=O)N[C@@H](C)C(=O)N[C@@H](CCCCN)C(=O)N[C@@H](CCCCN)C(=O)N[C@@H](CC(C)C)C(=O)NCC(=O)N[C@@H](CCCCN)C(=O)N[C@@H](C)C(=O)N[C@@H](Cc1c[nH]c2ccccc12)C(=O)N[C@@H](CC(C)C)C(=O)NCC(=O)N[C@@H](CCC(=O)O)C(=O)N[C@@H](CC(C)C)C(=O)N[C@@H](CC(C)C)C(=O)N[C@@H](C)C(=O)N[C@@H](C)C(=O)O`, the EC50 was 55 ± 14 µM (sheep erythrocytes; turbidity; pH 7.5).
For `CNC(C)Cc1ccc2c(c1)OCO2` (racemic), the mood rating was 14.2 (visual analog scale, item: Anxious; human; oral, 1.5 mg/kg, mean over session, unit not given; baseline: pre-dose baseline).
`CC1(C)[C@H](C(=O)O[C@H](C#N)c2cccc(Oc3ccccc3)c2)[C@@H]1/C=C(\Cl)C(F)(F)F` (racemic) has an EC50 of 74.3 ± 4.8 µM (Caco-2; viability, MTT; 168 h).

Excerpt of the above:
For `COP(=S)(OC)Oc1ccc([N+](=O)[O-])c(C)c1`, the EC50 was 21.3 ± 0.5 µM (Caco-2; viability, MTT; 240 h).
